Earlier results as cited in several papers.
UniProt Q8IWQ3, sequence (whole entry, looked up): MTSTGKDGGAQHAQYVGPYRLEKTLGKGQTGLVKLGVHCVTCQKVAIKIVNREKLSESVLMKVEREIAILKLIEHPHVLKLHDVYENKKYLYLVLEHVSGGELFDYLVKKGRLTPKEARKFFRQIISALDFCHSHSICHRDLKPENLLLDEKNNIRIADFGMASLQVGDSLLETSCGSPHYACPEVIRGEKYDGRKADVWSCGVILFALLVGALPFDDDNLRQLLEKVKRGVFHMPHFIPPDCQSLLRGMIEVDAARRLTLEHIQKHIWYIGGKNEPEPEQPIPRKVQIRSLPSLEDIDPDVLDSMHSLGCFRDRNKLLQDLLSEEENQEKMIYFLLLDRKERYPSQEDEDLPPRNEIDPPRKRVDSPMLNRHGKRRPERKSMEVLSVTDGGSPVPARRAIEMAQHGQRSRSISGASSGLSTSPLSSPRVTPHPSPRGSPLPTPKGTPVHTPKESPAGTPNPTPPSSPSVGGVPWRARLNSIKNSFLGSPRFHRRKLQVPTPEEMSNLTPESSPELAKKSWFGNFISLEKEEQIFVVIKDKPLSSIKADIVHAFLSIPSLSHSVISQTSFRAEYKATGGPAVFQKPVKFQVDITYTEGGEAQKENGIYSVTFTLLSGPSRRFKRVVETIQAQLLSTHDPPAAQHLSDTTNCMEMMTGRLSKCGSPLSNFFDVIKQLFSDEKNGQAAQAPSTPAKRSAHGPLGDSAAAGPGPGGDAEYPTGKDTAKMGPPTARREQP

Clc1ccc(C(c2ccccc2Cl)C(Cl)Cl)cc1 (centres unmarked)  plasma elimination half-life (human): 432 to 3820 h
CC(C)(O)c1ccccc1CC[C@@H](SCC1(CC(=O)O)CC1)c1cccc(/C=C/c2ccc3ccc(Cl)cc3n2)c1  plasma clearance (human; average of reported values): 0.71 mL/min/kg
CNS(=O)(=O)Nc1nccc(Cc2c(C)c3ccc(Oc4ncccn4)cc3oc2=O)c1F  plasma half-life (human, plasma): 60 h
Nc1cc(C(F)(F)F)c(-c2nc(N3CCOCC3)nc(N3CCOCC3)n2)cn1  remaining activity (BRSK2 (Homo sapiens, UniProt Q8IWQ3); enzyme activity; 10 µM; reference: untreated): 61%
C#C[C@]1(CO)O[C@@H](n2cnc3c(N)nc(F)nc32)C[C@@H]1O  plasma AUC(0-inf) increase (human; 30 mg, with: high-fat meal; reference: fasted): 10%
CC(=O)CC(c1ccccc1)c1c(O)c2ccccc2oc1=O (centres unmarked)  plasma clearance (human; average of reported values): 0.051 mL/min/kg
CC(C)c1nc(CN(C)C(=O)N[C@@H](CCN2CCOCC2)C(=O)N[C@H](CC[C@H](Cc2ccccc2)NC(=O)OCc2cncs2)Cc2ccccc2)cs1  plasma half-life (human): 3 to 4 h
Cc1ccc(NC(=O)c2ccc(CN3CCNCC3)cc2)cc1Nc1nc(-c2cccnc2)cs1  plasma concentration relative to parent (human, plasma; dose not given, steady state, major metabolite; reference: masitinib): 20 to 30%
CC(C)c1nc(CN(C)C(=O)N[C@H](C(=O)N[C@@H](Cc2ccccc2)C[C@H](O)[C@H](Cc2ccccc2)NC(=O)OCc2cncs2)C(C)C)cs1  plasma concentration (human; 600 mg twice daily, HIV clinical dosing): 15 µM
CCN1CCN(Cc2ccc(Nc3ncc(F)c(-c4cc(F)c5nc(C)n(C(C)C)c5c4)n3)nc2)CC1  plasma elimination half-life (human patients; 200 mg, mean): 21 h
Cc1ccc(NC(=O)c2ccc(CN3CCN(C)CC3)cc2)cc1Nc1nc(-c2cccnc2)cs1  plasma concentration (human, plasma; 300 mg twice daily): 1.7 µM

For quick reference, copied from above:
CC(C)c1nc(CN(C)C(=O)N[C@H](C(=O)N[C@@H](Cc2ccccc2)C[C@H](O)[C@H](Cc2ccccc2)NC(=O)OCc2cncs2)C(C)C)cs1  plasma concentration (human; 600 mg twice daily, HIV clinical dosing): 15 µM
